Values quoted from earlier work, collected from citations in different studies.
± gives the spread as reported.
PTGS2: Prostaglandin G/H synthase 2 (PTGS2, Homo sapiens, UniProt P35354)
UniProt P35354, sequence (whole entry, looked up): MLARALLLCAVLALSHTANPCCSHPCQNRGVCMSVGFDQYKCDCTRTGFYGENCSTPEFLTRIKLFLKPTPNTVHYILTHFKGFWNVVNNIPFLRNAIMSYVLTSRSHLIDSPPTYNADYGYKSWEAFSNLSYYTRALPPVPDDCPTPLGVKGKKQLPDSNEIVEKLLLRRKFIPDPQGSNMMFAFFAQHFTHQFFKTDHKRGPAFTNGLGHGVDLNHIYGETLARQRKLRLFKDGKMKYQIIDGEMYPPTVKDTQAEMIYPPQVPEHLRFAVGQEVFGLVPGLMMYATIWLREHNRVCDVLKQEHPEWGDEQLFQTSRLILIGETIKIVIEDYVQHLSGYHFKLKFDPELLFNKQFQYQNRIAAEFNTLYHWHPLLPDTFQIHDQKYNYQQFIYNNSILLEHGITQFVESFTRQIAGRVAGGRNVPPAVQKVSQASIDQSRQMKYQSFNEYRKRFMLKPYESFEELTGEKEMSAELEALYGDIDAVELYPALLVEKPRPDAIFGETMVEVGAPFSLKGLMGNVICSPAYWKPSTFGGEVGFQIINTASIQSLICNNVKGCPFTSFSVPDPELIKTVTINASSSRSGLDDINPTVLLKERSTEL
CDK2: Cyclin-dependent kinase 2 (CDK2, Homo sapiens, UniProt P24941)
UniProt P0ACB0, sequence (whole entry, looked up): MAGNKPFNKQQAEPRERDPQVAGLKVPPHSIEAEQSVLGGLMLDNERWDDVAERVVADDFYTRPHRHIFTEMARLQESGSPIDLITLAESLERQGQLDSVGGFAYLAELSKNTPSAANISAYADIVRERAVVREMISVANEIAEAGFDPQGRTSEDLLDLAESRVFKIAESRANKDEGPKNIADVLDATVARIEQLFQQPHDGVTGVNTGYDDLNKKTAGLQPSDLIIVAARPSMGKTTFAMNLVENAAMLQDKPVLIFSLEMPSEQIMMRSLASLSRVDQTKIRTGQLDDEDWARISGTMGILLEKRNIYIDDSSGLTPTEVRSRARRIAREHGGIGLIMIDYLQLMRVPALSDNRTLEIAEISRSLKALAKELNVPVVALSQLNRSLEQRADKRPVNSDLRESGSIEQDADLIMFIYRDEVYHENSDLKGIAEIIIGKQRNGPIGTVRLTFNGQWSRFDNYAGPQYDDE
UniProt Q99814, sequence (whole entry, looked up): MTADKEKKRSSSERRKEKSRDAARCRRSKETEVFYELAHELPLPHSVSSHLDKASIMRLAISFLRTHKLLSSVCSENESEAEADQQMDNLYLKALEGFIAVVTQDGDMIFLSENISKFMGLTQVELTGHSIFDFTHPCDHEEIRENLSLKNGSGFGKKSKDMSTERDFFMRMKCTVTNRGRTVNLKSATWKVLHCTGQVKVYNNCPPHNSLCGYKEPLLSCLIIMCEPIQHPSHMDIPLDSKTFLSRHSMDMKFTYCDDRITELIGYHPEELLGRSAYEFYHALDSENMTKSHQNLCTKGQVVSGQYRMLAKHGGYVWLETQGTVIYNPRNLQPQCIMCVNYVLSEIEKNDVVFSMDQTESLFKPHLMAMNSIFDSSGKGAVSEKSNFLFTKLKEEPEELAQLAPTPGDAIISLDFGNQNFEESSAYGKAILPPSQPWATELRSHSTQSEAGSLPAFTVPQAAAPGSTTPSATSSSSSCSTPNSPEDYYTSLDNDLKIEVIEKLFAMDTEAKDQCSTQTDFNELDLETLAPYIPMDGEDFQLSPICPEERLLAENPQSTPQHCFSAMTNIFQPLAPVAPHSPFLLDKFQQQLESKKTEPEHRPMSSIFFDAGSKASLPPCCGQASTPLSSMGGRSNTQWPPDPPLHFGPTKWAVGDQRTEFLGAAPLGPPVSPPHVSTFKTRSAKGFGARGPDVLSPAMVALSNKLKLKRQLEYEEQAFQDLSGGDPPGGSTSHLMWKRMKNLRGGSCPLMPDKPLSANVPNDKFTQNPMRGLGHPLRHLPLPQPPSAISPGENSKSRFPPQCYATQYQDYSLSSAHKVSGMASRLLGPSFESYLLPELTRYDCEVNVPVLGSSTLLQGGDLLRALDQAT
UniProt Q9UQM7, sequence (whole entry, looked up): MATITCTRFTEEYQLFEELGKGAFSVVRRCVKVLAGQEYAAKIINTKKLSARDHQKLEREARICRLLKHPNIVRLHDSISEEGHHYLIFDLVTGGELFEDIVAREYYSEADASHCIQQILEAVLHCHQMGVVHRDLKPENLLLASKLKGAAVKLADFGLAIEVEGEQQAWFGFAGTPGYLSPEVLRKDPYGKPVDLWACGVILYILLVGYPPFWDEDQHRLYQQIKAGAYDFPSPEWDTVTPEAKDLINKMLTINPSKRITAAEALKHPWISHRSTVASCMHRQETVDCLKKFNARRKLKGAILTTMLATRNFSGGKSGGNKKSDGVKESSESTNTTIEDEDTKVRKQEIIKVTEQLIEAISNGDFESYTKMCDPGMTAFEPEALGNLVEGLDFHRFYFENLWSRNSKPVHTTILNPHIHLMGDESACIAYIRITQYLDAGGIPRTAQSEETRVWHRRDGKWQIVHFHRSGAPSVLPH

CC(=O)N[C@@H](CC(N)=O)C(=O)N[C@@H](CC(C)C)C(=O)N[C@]1(C)CCCCCCC=CCCC[C@@](C)(C(=O)N[C@@H](CCC(=O)O)C(=O)N[C@@H](CC(C)C)C(=O)N[C@@H](CC(N)=O)C(N)=O)NC(=O)[C@H](CC(C)C)NC(=O)[C@H](CC(C)C)NC(=O)[C@H](CCCNC(=N)N)NC(=O)[C@H](CC(=O)O)NC(=O)[C@H](CC(C)C)NC(=O)[C@H](CCC(=O)O)NC1=O — Kd (focal adhesion kinase FAT domain; binding): 800 nM
c1ccc2c(c1)Cc1ccccc1-2 — Kd (amyloid beta fibrils; binding): ~1 nM
O=C(c1cc(-c2ccccc2O)on1)N1CCN(C(c2ccccc2)c2ccccc2)CC1 — IC50 (Plasmodium falciparum; whole cell extended time; 3D7; 72 h): 340 nM
Cc1c(CC[S+]([O-])CCO[N+](=O)[O-])cc(-c2ccc(S(C)(=O)=O)cc2)n1-c1ccc(F)cc1 (stereo not drawn) — IC50 (PTGS2; inhibitor): 5 nM
O=C(O)CCCOc1ccc(F)cc1-c1cc(-c2ccccc2C(F)(F)F)n(-c2ccccc2)n1 — Kd (FABP4; binding, ANS displacement): 238 ± 46 nM
COc1cc(C=CC(=O)O)ccc1O — IC50 (PTGS2; inhibitor): 63200 nM
CC(C)(c1ccc(O)cc1)c1ccc(O)cc1 — EC50 (zebrafish estrogen receptor alpha; agonist): 599 nM
Cc1cc2nc(n1)Nc1cccc(c1)CN(C)C/C=C/CCOc1cccc-2c1 — IC50 (CDK2): 4700 nM
O=[N+]([O-])c1cc(C(F)(F)F)ccc1NCc1ccsc1 — Kd (Endothelial PAS domain-containing protein 1, PAS-B domain (EPAS1, Homo sapiens, UniProt Q99814); binding, isothermal titration calorimetry; <0.1% DMSO): 600 nM
CC1(C)Cn2nc(-c3ccc(F)cn3)c(-c3ccnc4[nH]ncc34)c2CO1 — Kd (CSNK1E; binding): 137 nM
C[C@H]1COCCN1c1nc(-c2cnc(N)cc2C(F)F)nc(N2CCOCC2)n1 — GI50 (RPMI-7951): 300 nM
COc1ccc(/C=N/n2c(Cc3ccc(C)cc3)n[nH]c2=S)c(O)c1 — IC50 (PTGS2; inhibitor): 1760 nM
CSCC[C@H](NC(=O)[C@H](CCC(=O)O)NC(=O)[C@@H]1CCCN1C(=O)[C@@H](NC(=O)[C@@H]1CCCN1)[C@@H](C)O)C(=O)N[C@@H](CCCNC(=N)N)C(=O)N[C@@H](CCC(=O)O)C(=O)N[C@@H](CCCCN)C(=O)N[C@@H](CC(C)C)C(=O)N[C@H]1CSSC[C@@H]2NC(=O)[C@@H](NC(=O)[C@H](Cc3ccc(O)cc3)NC(=O)[C@H](CCCNC(=N)N)NC(=O)[C@H](C)NC(=O)[C@@H]3CCCN3C(=O)[C@H](CC(N)=O)NC(=O)[C@@H](NC(=O)[C@H](C)NC(=O)[C@H](C)NC(=O)[C@H](C)N)[C@@H](C)O)CSSC[C@H](NC(=O)CNC(=O)[C@H](CO)NC(=O)[C@H](CC(C)C)NC2=O)C(=O)N[C@@H]([C@@H](C)O)C(=O)N[C@@H](CCC(N)=O)C(=O)N[C@@H](CCC(N)=O)C(=O)N[C@@H](CC(=O)O)C(=O)N[C@@H](CC(C)C)C(=O)N[C@@H](CC(C)C)C(=O)N[C@@H]([C@@H](C)O)C(=O)N[C@@H](CC(C)C)C(=O)N[C@H](C(=O)N2CCC[C@H]2C(=O)N[C@@H](Cc2ccc(O)cc2)C(=O)O)CSSC[C@@H](C(=O)NCC(=O)NCC(=O)N2CCC[C@H]2C(=O)N[C@@H](CCCNC(=N)N)C(=O)N[C@@H](Cc2c[nH]c3ccccc23)C(=O)N[C@@H](CO)C(=O)N[C@H](C(=O)N[C@@H](CCC(=O)O)C(=O)N[C@@H](C)C(=O)O)[C@@H](C)O)NC(=O)[C@H](C(C)C)NC(=O)[C@H](CCCNC(=N)N)NC(=O)[C@H](C(C)C)NC(=O)[C@H](CC(C)C)NC(=O)[C@H](C)NC(=O)[C@H](CCCNC(=N)N)NC(=O)[C@H](C(C)C)NC(=O)[C@H](Cc2ccccc2)NC(=O)[C@H](Cc2c[nH]cn2)NC(=O)[C@H](Cc2c[nH]cn2)NC(=O)CNC1=O — Kd (LGR8 (RXFP2); binding): 0.1 nM
CCc1ccccc1-c1ccc(C(=O)NC[C@@H](N)C(=O)O)o1 — EC50 (Glutamate receptor ionotropic, NMDA 1, with GluN2D (Grin1, Rattus norvegicus, UniProt P35439); with: saturating glutamate): 150 nM
CC1(C)S[C@@H]2[C@H](NC(=O)[C@H](N)c3ccccc3)C(=O)N2[C@H]1C(=O)O — MIC (Pseudomonas aeruginosa; clinical isolate RKI-No_347/12): > 16 µg/mL
Cn1nc(C(=O)NCCc2ccccc2)c2c1-c1nc(Nc3ccccc3)ncc1CC2 — IC50 (CDK2): 697 nM
CCN1CC/C(=C\c2cc(C(C)(C)C)c(O)c(C(C)(C)C)c2)S1(=O)=O — IC50 (PTGS2; inhibitor): 11 nM
Cc1c(C#N)c(NCCO)nc2ncnc(N)c12 — IC50 (CDK2): 29500 nM
CNC(=O)[C@@]12C[C@@H]1[C@@H](n1cnc3c(NCc4cccc(Cl)c4)nc(C#Cc4ccc(F)c(F)c4)nc31)[C@H](O)[C@@H]2O — Ki (beta-3 adrenergic receptor; radioligand binding): 1500 nM
CN1C/C=C/CCOc2cc(F)cc(c2)-c2ccnc(n2)Nc2cccc(c2)C1 — IC50 (CDK2): 9 nM
Nc1cc(C(F)(F)F)c(-c2nc(N3CCOCC3)nc(N3CCOCC3)n2)cn1 — remaining activity (Calcium/calmodulin-dependent protein kinase type II subunit alpha (CAMK2A, Homo sapiens, UniProt Q9UQM7); enzyme activity; 10 µM; reference: untreated): 88%
Nc1ccn([C@@H]2O[C@H](COP(=O)(O)OP(=O)(O)O)[C@@H](O)[C@H]2O)c(=O)n1 — Kd (ribonuclease A; binding, ESI mass spectrometry): 1000 to 3000 nM
CCc1cccc(CC)c1NC(=O)c1nn(C)c2c1CCc1cnc(Nc3ccc(C(=O)N4CCCN(C)CC4)cc3OC)nc1-2 — IC50 (CDK2): 3620 nM
Cc1c(Cl)cccc1Nc1ccccc1C(=O)Nc1ccc(N2CCNCC2)cc1 — IC50 (PTGS2; inhibitor): 2310 nM
Fc1ncccc1-c1ccc2c(n1)[nH]c1ccncc12 — Kd (binding, Scatchard analysis, item: tau aggregates; progressive supranuclear palsy brain tissue): 9.4 nM
Nc1ncnc2c1ncn2[C@@H]1O[C@H](COP(=O)(O)OP(=O)(O)OP(=O)(O)O)[C@H]2OC3(O[C@H]21)C([N+](=O)[O-])=CC(=[N+]([O-])O)C=C3[N+](=O)[O-] (stereo partly drawn) — Kd (Replicative DNA helicase DnaB (dnaB, Escherichia coli, UniProt P0ACB0); intrinsic fluorescence quenching; hexagon model, six sites): 1690 nM
COc1cc2c(cc1OC)C1CC(O)C(CC(C)C)CN1CC2 (stereo not drawn) — Kd (binding, radioligand binding; rat forebrain): 2.6 nM
Nc1scc2c1c(NCCO)nc1nc(NCCO)nc(N)c12 — IC50 (CDK2): 90 nM
CNC(C)C1CCC(N)C(OC2C(N)CC(N)C(OC3OCC(C)(O)C(NC)C3O)C2O)O1 (stereo not drawn) — MIC (Pseudomonas aeruginosa; clinical isolate RKI-No_347/12): > 8 µg/mL
CC[C@H](C)[C@H](NC(=O)[C@H](CC(C)C)NC(=O)[C@H](CCCNC(=N)N)NC(=O)c1ccc(CN2CCNCC2)cc1)C(=O)N[C@@H](Cc1ccccc1)C(=O)O — IC50 (CDK2): 12900 nM
CCCCCCCCc1c(C)[nH]c(C)c(Cl)c1=O — IC50 (Plasmodium falciparum; whole cell extended time; 3D7; 72 h): 230 nM
C[C@H](CCCC(C)(C)O)[C@H]1CC[C@H]2[C@@H]3CC=C4C[C@@H](O)CC[C@]4(C)[C@H]3CC[C@]12C — Kd (Osh4 protein, yeast; binding): 55 nM
CCNS(=O)(=O)c1ccc(OC)cc1C1(O)CCN(Cc2cccc(Oc3ccccc3OC)c2)CC1 — EC50 (human CCR8 F112A mutant (TM3); IP accumulation, agonist): 13 nM

Some of these lines once more:
Cc1cc2nc(n1)Nc1cccc(c1)CN(C)C/C=C/CCOc1cccc-2c1 — IC50 (CDK2): 4700 nM
O=[N+]([O-])c1cc(C(F)(F)F)ccc1NCc1ccsc1 — Kd (Endothelial PAS domain-containing protein 1, PAS-B domain (EPAS1, Homo sapiens, UniProt Q99814); binding, isothermal titration calorimetry; <0.1% DMSO): 600 nM
CC1(C)Cn2nc(-c3ccc(F)cn3)c(-c3ccnc4[nH]ncc34)c2CO1 — Kd (CSNK1E; binding): 137 nM
C[C@H]1COCCN1c1nc(-c2cnc(N)cc2C(F)F)nc(N2CCOCC2)n1 — GI50 (RPMI-7951): 300 nM
COc1ccc(/C=N/n2c(Cc3ccc(C)cc3)n[nH]c2=S)c(O)c1 — IC50 (PTGS2; inhibitor): 1760 nM
CSCC[C@H](NC(=O)[C@H](CCC(=O)O)NC(=O)[C@@H]1CCCN1C(=O)[C@@H](NC(=O)[C@@H]1CCCN1)[C@@H](C)O)C(=O)N[C@@H](CCCNC(=N)N)C(=O)N[C@@H](CCC(=O)O)C(=O)N[C@@H](CCCCN)C(=O)N[C@@H](CC(C)C)C(=O)N[C@H]1CSSC[C@@H]2NC(=O)[C@@H](NC(=O)[C@H](Cc3ccc(O)cc3)NC(=O)[C@H](CCCNC(=N)N)NC(=O)[C@H](C)NC(=O)[C@@H]3CCCN3C(=O)[C@H](CC(N)=O)NC(=O)[C@@H](NC(=O)[C@H](C)NC(=O)[C@H](C)NC(=O)[C@H](C)N)[C@@H](C)O)CSSC[C@H](NC(=O)CNC(=O)[C@H](CO)NC(=O)[C@H](CC(C)C)NC2=O)C(=O)N[C@@H]([C@@H](C)O)C(=O)N[C@@H](CCC(N)=O)C(=O)N[C@@H](CCC(N)=O)C(=O)N[C@@H](CC(=O)O)C(=O)N[C@@H](CC(C)C)C(=O)N[C@@H](CC(C)C)C(=O)N[C@@H]([C@@H](C)O)C(=O)N[C@@H](CC(C)C)C(=O)N[C@H](C(=O)N2CCC[C@H]2C(=O)N[C@@H](Cc2ccc(O)cc2)C(=O)O)CSSC[C@@H](C(=O)NCC(=O)NCC(=O)N2CCC[C@H]2C(=O)N[C@@H](CCCNC(=N)N)C(=O)N[C@@H](Cc2c[nH]c3ccccc23)C(=O)N[C@@H](CO)C(=O)N[C@H](C(=O)N[C@@H](CCC(=O)O)C(=O)N[C@@H](C)C(=O)O)[C@@H](C)O)NC(=O)[C@H](C(C)C)NC(=O)[C@H](CCCNC(=N)N)NC(=O)[C@H](C(C)C)NC(=O)[C@H](CC(C)C)NC(=O)[C@H](C)NC(=O)[C@H](CCCNC(=N)N)NC(=O)[C@H](C(C)C)NC(=O)[C@H](Cc2ccccc2)NC(=O)[C@H](Cc2c[nH]cn2)NC(=O)[C@H](Cc2c[nH]cn2)NC(=O)CNC1=O — Kd (LGR8 (RXFP2); binding): 0.1 nM
